Measured values from different studies.
Values joined by “and” are separate records of one study, mostly repeats; a detail may differ. ± gives the spread as reported. Bridges are numbered along the chain shown (N, C = ends).
B1: disulfide; chain MRGSHHHHHHGSNEKGETSEKTIVRANGTRLEYTDIKSDGIEGRVDGGGGSDDDDKMACPRGIGLQCGGGS (disulfide 59-67 (inferred))

Substance | organism | test | test system | conditions | EC50
O=c1[nH]c(=O)c2ncn(C[C@@H](CF)OCP(=O)(O)O)c2[nH]1 | Human alphaherpesvirus 3 | plaque formation, inhibitor | HEL |  | > 329 µM
O=C(N/N=C1\C(=O)Nc2ccc(Cl)cc21)N/N=C1\C(=O)Nc2ccc(Cl)cc21 | varicella-zoster virus | plaque formation | HEL, TK- |  | > 20 µM
NC(=O)c1ncn([C@@H]2O[C@H](CO)[C@@H](O)[C@H]2O)n1 | human respiratory syncytial virus | viral replication | BEAS-2B |  | 2.6 µM
C/C(O)=C(\C#N)C(=O)Nc1ccc(C(F)(F)F)cc1 | human coronavirus OC43 | viral RNA, qPCR | Huh-7 | 7 d | 67.2 µM
O=C(Cc1csc2nc(-c3ccc(Br)cc3)cn12)NN=C1CCCCC1 | feline coronavirus | viral cytopathic effect | CRFK |  | > 100 µg/mL
C/C(=N\C#N)N(C)Cc1ccc(Cl)nc1 | Folsomia candida | reproduction, OECD 232 | LUFA 2.2 soil | 28 days | 0.1 mg/kg dry soil
O=C(Nc1ccc2c(c1)B(O)OC2)c1ccccc1C(F)(F)F | Leishmania amazonensis | alamarBlue | axenic amastigotes | 72 h | 0.22 ± 0.05 µM
c1coc(-c2nn3c(Cn4cnc5ccccc54)nnc3s2)c1 | human respiratory syncytial virus | viral replication | HEp-2, Long | 96 h | 0.66 µM
Cc1ccc(S(=O)(=O)N2C(=O)CSC2c2ccccc2[N+](=O)[O-])cc1 (stereo not shown) | HIV-2 | viral cytopathicity, MTT | MT-4, ROD |  | > 125 µM
NC(=O)c1ncn([C@@H]2O[C@H](CO)[C@@H](O)[C@H]2O)n1 | Coxsackievirus B4 | cytopathic effect | HeLa |  | 112 µM
COC(=O)[C@@H]1C(C=O)=Cc2cc3c(cc2[C@H]1c1cc(OC)c(OC)c(OC)c1)OCO3 | Leishmania infantum | parasite growth | mouse Splenocyte | 48 h, intracellular, amastigote | 9.3 µM
Cc1cn([C@H]2C[C@H](N=[N+]=[N-])[C@@H](CO)O2)c(=O)[nH]c1=O | HIV-2 | viral cytopathicity, MTT | MT-4, ROD |  | 0.0022 µM
N=C(NO)NCC[C@H](N)C(=O)O | Leishmania mexicana | parasite growth, resazurin |  | 5 days, promastigote | 3000 µM
CC(=CC(=O)NCCCCNc1cc(C(F)(F)F)nc2c(C(F)(F)F)cccc12)C(=O)NCCCCNc1cc(C(F)(F)F)nc2c(C(F)(F)F)cccc12 | Coxsackievirus B4 | viral cytopathic effect, visual CPE scoring | HEp-2 |  | 3.15 µM
O[C@@H](CS)[C@@H](O)CS (racemic) | Helicobacter pylori | Lewis b binding loss, radioligand binding | 17875/Leb | cells pre-exposed to compound | 10000 µM
COC(=O)N[C@H](C(=O)N1CCC[C@H]1c1ncc(-c2ccc(-c3ccc(-c4cnc([C@@H]5CCCN5C(=O)[C@@H](NC(=O)OC)C(C)C)[nH]4)cc3)cc2)[nH]1)C(C)C | hepatitis C virus | viral replication, transient replicon | genotype 1b replicon wild type |  | 2.6e-06 ± 3.3e-07 µM
Cc1c(C(=O)C(=O)NCc2cn(CCCCCCCCCCCCCCn3cc(CNC(=O)C(=O)c4c(C)c(C(=O)Nc5ccc(F)c(F)c5)n(C)c4C)nn3)nn2)c(C)n(C)c1C(=O)Nc1ccc(F)c(F)c1 | hepatitis B virus | viral replication, chemiluminescence immunoassay, refers to: secreted HBeAg | HBV-infected HepG2-NTCP cells | day 8 post-infection, daily from day 4 post-infection | 3.13 µM
CC1CS(=O)(=O)CCN1/N=C/c1ccc([N+](=O)[O-])o1 (stereo not shown) | Trypanosoma brucei brucei | parasite viability | bloodstream form 427 | 72 h | 2.4 ± 0.1 µM
Cc1ccc(S(=O)(=O)N2C(=O)CSC2c2cccc(Br)c2)cc1 (stereo not shown) | herpes simplex virus 2 | viral cytopathicity | HEL, G |  | > 100 µM
NC(=O)c1ncn([C@@H]2O[C@H](CO)[C@@H](O)[C@H]2O)n1 | Coxsackievirus B4 | viral cytopathic effect, MTS | HEp-2 |  | 109 µM
C[C@H](Cn1cnc2c(N)ncnc21)OCP(=O)(O)O | human alphaherpesvirus 2 | viral replication | human keratinocytes |  | 193 ± 17 µg/mL
CSc1ccc(OCc2ncc([N+](=O)[O-])n2C)cc1 | Leishmania donovani |  | intracellular amastigotes in macrophages, LdBOB, nitroreductase-overexpressing |  | 3.2 ± 0.3 µM

Substance | organism | test | test system | conditions | EC50
CN(C)CCNC(=O)c1cc(-c2cccs2)nc2ccccc12 | Enterovirus D68 | viral replication | RD, US/KY/14-18953 |  | < 1 µM
Cc1ccc(S(=O)(=O)N2C(=O)CSC2c2ccccc2Cl)cc1 (stereo not shown) | herpes simplex virus 2 | viral cytopathicity | HEL, G |  | > 100 µM
Cc1c(-c2ccc(-c3ccccc3F)cc2)nc2ccc(F)cc2c1C(=O)O | human respiratory syncytial virus | viral replication | BEAS-2B |  | 1.6 µM
Cc1ccc(S(=O)(=O)N2C(=O)CSC2c2ccc(Cl)cc2)cc1 (stereo not shown) | HIV-2 | viral cytopathicity, MTT | MT-4, ROD |  | > 125 µM
Cn1cnc(S(=O)(=O)N2CCCCN3[C@H](CO)[C@@H](c4ccc(-c5ccc(F)cc5)cc4)[C@@H]3C2)c1 | Respiratory syncytial virus | cytopathic effect | A2 |  | 6.1 µM
COc1ccc(Cn2c(SC(C)C(=O)Nc3ccc(C)cc3Cl)nc3ccccc32)cc1 (stereo not shown) | Measles morbillivirus | viral replication | Alaska |  | 0.4 µM
Cc1cc(NS(=O)(=O)c2ccc(N)cc2)no1 | Human gammaherpesvirus 8 | latent viral DNA | BC-3 |  | 12 ± 4 µg/mL
Cc1ccc(S(=O)(=O)N2C(=O)CSC2c2ccc(O)cc2)cc1 (stereo not shown) | HIV-2 | viral cytopathicity, MTT | MT-4, ROD |  | > 125 µM
C[C@H](Cn1cnc2c(N)ncnc21)OCP(=O)(O)O | hepatitis B virus | viral replication | HepG2.2.15 |  | 2.4 ± 0.2 µM
COc1cc([C@@H]2c3cc4c(cc3C[C@H]3COC(=O)[C@@H]32)OCO4)cc(OC)c1OC | Leishmania infantum | intracellular amastigote growth, iRFP fluorescence | infected mouse splenocyte explants | 48 h | > 100 µM
CCOP(=O)(OCC)[C@@H]1C[C@@H](Cn2c(=O)n(C(=O)c3ccccc3)c(=O)c3ccccc32)ON1C | human alphaherpesvirus 3 | plaque formation | HEL, TK-deficient 07-1 |  | 10.7 to 13.2 µM
CCCCCC[C@H]1C(=O)O[C@H](C)[C@H](NC(=O)c2cccc(NC=O)c2O)C(=O)O[C@@H](C)[C@@H]1OC(=O)CC(C)C | Feline infectious peritonitis virus | viral replication, visual scoring |  | 48 h | 75 µM
CSc1ccccc1C(=O)Oc1cc(C)nc(-n2nc(C)cc2N)n1 | Leishmania amazonensis | alamarBlue | axenic amastigotes | 72 h | > 5 µM
Cc1ccc(S(=O)(=O)N2C(=O)CSC2c2ccc(C(C)C)cc2)cc1 (stereo not shown) | HIV-2 | viral cytopathicity, MTT | MT-4, ROD |  | > 125 µM
Nc1ncnc2c1ncn2CCOCP(=O)(O)O | hepatitis B virus | viral replication | HepG2.2.15 |  | 1 ± 0.2 µM
C[C@H]1CN(c2n[nH]c3nc(N[C@H]4CC[C@H](NS(=O)(=O)CCC(F)(F)F)CC4)ncc23)CCO1 | Leishmania donovani | parasite growth | mouse | intracellular, amastigote | 1.26 µM
NC(=O)CCNC(=O)c1ccccc1S | HIV-1 | viral replication | human monocytes/macrophages, subtype B ADA, CCR5-tropic |  | 15.7 µM
C#CCOc1ccc(C(=O)c2ccc(C(=O)Nc3cc(C)nn3-c3nc(C)c(CC)c(=O)[nH]3)cc2)cc1 | Leishmania amazonensis | alamarBlue | axenic amastigotes | 72 h | 0.156 µM and 0.16 µM
Cc1ccc(S(=O)(=O)N2C(=O)CSC2c2ccccc2F)cc1 (stereo not shown) | herpes simplex virus 2 | viral cytopathicity | HEL, G |  | > 100 µM
CCOP(=O)(OCC)[C@H]1C[C@@H](Cn2c(=O)n(C(=O)c3ccccc3)c(=O)c3ccccc32)ON1Cc1ccccc1 (relative stereo) | human alphaherpesvirus 3 | viral replication, plaque reduction | HEL, Oka TK+ |  | 6.9 to 7.5 µM
B1 | Borrelia garinii | cyst to spirochete conversion, flow cytometry | SKT-7.1 | 16 h | 0.83 µM

For quick reference, copied from above:
Substance | organism | test | test system | conditions | EC50
Cc1c(C(=O)C(=O)NCc2cn(CCCCCCCCCCCCCCn3cc(CNC(=O)C(=O)c4c(C)c(C(=O)Nc5ccc(F)c(F)c5)n(C)c4C)nn3)nn2)c(C)n(C)c1C(=O)Nc1ccc(F)c(F)c1 | hepatitis B virus | viral replication, chemiluminescence immunoassay, refers to: secreted HBeAg | HBV-infected HepG2-NTCP cells | day 8 post-infection, daily from day 4 post-infection | 3.13 µM
CC1CS(=O)(=O)CCN1/N=C/c1ccc([N+](=O)[O-])o1 (stereo not shown) | Trypanosoma brucei brucei | parasite viability | bloodstream form 427 | 72 h | 2.4 ± 0.1 µM
O=c1[nH]c(=O)c2ncn(C[C@@H](CF)OCP(=O)(O)O)c2[nH]1 | Human alphaherpesvirus 3 | plaque formation, inhibitor | HEL |  | > 329 µM
Cc1c(-c2ccc(-c3ccccc3F)cc2)nc2ccc(F)cc2c1C(=O)O | human respiratory syncytial virus | viral replication | BEAS-2B |  | 1.6 µM
O[C@@H](CS)[C@@H](O)CS (racemic) | Helicobacter pylori | Lewis b binding loss, radioligand binding | 17875/Leb | cells pre-exposed to compound | 10000 µM
CSc1ccc(OCc2ncc([N+](=O)[O-])n2C)cc1 | Leishmania donovani |  | intracellular amastigotes in macrophages, LdBOB, nitroreductase-overexpressing |  | 3.2 ± 0.3 µM
